Assay results of several laboratories.
Every numbered part comes from another study and shows a few of its results, in no order.
Sequence of UniProt P10721 (whole entry, unmodified, looked up): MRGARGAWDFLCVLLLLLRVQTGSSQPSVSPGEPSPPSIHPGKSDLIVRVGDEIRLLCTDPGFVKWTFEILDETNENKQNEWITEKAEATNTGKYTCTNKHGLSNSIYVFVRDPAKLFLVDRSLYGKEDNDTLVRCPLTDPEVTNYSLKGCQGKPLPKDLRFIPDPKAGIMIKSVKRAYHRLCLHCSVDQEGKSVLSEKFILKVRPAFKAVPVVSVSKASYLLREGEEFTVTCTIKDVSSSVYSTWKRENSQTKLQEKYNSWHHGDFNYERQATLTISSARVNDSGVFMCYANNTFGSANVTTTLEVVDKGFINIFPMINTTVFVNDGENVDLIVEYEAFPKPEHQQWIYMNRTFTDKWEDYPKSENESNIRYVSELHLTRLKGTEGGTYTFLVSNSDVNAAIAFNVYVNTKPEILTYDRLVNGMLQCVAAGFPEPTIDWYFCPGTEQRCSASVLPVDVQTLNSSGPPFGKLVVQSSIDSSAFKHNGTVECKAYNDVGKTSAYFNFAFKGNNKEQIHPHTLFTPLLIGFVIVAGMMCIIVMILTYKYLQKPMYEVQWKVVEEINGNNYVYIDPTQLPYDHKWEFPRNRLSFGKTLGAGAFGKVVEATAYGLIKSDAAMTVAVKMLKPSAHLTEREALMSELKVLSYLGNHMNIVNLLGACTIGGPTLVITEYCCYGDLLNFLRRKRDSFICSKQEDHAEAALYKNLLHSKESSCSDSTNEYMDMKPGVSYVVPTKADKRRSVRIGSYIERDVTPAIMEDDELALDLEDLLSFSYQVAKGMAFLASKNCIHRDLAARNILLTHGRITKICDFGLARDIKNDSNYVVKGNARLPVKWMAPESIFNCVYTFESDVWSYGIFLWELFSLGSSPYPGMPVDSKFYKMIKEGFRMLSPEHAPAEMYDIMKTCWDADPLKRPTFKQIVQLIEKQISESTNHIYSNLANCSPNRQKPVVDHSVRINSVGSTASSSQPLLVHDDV
Sequence of UniProt Q99558 (whole entry, looked up): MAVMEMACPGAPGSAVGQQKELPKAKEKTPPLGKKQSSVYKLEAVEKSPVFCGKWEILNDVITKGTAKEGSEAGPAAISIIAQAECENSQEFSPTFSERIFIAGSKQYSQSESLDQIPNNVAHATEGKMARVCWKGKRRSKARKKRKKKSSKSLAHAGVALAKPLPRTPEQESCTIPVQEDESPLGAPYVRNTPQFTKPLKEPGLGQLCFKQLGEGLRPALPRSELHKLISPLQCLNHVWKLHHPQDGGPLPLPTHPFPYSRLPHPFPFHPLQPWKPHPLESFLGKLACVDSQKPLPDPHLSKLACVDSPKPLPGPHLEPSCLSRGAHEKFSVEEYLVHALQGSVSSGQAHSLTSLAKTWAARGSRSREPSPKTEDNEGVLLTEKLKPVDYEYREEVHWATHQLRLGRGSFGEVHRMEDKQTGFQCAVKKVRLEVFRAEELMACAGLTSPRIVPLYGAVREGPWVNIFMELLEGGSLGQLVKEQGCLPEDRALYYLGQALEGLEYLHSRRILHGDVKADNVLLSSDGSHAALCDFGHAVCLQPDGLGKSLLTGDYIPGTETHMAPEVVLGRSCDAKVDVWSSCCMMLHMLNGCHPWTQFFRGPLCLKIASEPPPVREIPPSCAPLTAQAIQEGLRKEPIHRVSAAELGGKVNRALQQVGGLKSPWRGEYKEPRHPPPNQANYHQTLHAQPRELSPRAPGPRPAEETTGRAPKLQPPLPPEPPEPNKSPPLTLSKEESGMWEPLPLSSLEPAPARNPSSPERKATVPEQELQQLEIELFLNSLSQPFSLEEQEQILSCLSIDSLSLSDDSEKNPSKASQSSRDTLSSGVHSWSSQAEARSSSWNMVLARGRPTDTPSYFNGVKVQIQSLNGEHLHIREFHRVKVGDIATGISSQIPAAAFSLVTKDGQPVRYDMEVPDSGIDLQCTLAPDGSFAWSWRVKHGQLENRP
Sequence of UniProt Q9H2X6 (whole entry, looked up): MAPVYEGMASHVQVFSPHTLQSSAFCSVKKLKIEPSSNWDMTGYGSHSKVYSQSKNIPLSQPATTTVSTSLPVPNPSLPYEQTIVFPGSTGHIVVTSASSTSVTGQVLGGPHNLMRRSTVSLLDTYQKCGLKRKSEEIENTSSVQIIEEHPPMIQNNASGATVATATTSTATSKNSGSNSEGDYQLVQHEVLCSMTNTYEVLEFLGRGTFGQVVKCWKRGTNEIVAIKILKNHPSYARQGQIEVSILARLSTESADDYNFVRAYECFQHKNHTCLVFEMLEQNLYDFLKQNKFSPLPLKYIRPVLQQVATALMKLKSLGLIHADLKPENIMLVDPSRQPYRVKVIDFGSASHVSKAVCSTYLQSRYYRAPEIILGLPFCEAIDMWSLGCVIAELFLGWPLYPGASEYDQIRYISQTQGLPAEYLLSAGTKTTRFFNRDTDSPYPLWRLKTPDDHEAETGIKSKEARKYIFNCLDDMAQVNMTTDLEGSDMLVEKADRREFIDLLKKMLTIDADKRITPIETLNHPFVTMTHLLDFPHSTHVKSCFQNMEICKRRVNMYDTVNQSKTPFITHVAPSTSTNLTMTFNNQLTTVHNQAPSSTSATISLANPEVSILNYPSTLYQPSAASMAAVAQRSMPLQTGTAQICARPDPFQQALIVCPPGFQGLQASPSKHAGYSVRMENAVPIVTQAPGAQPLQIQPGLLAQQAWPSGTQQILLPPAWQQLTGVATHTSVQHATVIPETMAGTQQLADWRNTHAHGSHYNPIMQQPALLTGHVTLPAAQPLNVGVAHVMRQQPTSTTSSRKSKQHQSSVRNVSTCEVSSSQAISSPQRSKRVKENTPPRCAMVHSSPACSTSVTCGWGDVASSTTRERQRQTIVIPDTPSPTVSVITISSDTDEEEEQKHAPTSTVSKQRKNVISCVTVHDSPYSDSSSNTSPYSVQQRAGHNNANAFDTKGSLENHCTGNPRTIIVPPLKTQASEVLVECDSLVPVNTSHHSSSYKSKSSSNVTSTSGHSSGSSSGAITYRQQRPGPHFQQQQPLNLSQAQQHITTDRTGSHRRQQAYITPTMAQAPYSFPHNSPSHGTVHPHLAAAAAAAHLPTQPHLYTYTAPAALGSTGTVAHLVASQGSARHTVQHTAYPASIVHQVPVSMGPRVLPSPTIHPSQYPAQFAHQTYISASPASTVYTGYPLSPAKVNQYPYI
Sequence of UniProt P49841 (whole entry, looked up): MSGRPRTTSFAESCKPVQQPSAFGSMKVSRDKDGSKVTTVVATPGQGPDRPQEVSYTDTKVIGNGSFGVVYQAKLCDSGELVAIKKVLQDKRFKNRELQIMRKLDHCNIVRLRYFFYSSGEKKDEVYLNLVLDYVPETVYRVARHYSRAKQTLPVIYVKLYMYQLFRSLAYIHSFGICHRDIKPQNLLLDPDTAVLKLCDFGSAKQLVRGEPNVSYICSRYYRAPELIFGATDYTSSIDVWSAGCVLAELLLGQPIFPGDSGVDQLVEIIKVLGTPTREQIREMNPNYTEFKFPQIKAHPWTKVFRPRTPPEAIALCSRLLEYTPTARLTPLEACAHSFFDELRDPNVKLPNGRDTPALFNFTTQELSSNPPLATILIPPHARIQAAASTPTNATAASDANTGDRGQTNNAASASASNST
Sequence of UniProt P22607 (whole entry, looked up): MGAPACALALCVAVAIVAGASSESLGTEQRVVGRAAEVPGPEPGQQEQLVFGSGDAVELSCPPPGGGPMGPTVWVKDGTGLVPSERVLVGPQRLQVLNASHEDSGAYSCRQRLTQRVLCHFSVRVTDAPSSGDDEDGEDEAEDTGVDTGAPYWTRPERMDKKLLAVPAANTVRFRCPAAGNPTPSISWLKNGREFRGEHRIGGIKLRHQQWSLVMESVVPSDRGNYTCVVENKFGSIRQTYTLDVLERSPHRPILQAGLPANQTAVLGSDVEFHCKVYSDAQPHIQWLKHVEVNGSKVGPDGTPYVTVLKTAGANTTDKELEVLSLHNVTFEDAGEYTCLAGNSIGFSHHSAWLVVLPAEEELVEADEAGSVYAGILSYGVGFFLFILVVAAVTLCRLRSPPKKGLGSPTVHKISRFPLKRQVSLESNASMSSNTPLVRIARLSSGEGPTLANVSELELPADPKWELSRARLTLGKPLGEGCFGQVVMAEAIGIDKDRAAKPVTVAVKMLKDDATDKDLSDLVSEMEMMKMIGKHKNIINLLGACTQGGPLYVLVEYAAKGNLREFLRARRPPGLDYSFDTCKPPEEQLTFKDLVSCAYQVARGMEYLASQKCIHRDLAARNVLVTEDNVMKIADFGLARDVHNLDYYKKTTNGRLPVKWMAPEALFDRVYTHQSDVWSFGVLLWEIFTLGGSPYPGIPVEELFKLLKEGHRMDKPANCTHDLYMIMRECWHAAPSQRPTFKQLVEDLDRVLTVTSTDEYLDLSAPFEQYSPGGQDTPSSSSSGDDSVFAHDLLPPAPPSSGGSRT
Sequence of UniProt P27361 (whole entry, looked up): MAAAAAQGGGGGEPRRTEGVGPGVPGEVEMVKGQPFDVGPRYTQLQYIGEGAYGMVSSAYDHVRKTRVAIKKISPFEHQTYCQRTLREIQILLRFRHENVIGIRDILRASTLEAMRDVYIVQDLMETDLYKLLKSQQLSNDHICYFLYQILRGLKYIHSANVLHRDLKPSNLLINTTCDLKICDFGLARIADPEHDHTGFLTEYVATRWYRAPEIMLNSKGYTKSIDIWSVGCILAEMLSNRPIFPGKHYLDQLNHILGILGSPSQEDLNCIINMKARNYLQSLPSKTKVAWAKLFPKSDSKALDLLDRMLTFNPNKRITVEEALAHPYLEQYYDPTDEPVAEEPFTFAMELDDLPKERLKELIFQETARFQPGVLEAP
Sequence of UniProt Q9HC98 (whole entry, looked up): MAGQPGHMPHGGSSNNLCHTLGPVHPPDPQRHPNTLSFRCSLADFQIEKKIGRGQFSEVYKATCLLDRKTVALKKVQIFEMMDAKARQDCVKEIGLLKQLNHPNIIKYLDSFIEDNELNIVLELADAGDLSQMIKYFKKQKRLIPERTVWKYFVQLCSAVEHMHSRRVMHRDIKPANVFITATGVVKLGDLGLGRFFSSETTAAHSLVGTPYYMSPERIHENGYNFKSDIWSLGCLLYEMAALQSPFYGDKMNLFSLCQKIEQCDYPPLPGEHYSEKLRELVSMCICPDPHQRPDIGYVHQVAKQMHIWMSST

Set 1 — SMILES: COc1cc2ncnc(Nc3ccc(O)c(Br)c3)c2cc1OC; read-out: enzyme activity; action: inhibitor; tested at: 0.5 µM; reference: control; measurement: remaining activity
CSNK1G2 (Homo sapiens, UniProt P78368): 96.4%
MAPK3 (Homo sapiens, UniProt P27361): 97%
FGFR3 (Homo sapiens, UniProt P22607): 98.8%
MAP3K14 (Homo sapiens, UniProt Q99558): 82.6%
MAP3K5 (Homo sapiens, UniProt Q99683): 98.6%
GRK7 (Homo sapiens, UniProt Q8WTQ7): 96.4%
CSNK1G3 (Homo sapiens, UniProt Q9Y6M4): 101%
GSK3B (Homo sapiens, UniProt P49841): 92%
ABL2 (Homo sapiens, UniProt P42684): 58.4%
JAK3 (Homo sapiens, UniProt P52333): 100%
MAP2K2 (Homo sapiens, UniProt P36507): 86.2%
NEK6 (Homo sapiens, UniProt Q9HC98): 100%
LCK (Homo sapiens, UniProt P06239): 48.9%

Set 2 — technique: RNA Bind-n-Seq; molecule type: RNA; sample: in vitro; tested at: 20 nM; notes: 6-mer, flanks averaged, single round; with: 150 mM KCl; reference: input library; reading: higher = stronger binding; measurement: 6-mer enrichment (R)
Target: TAR DNA-binding protein 43, full length, His tag (TARDBP, Homo sapiens, UniProt Q13148, residues 1-414)
CUGGCG: 1.44
AUAAUU: 0.752
AGGUAA: 0.81
GGCCAU: 1.01
CCCGGG: 1.47
AGAGGG: 4.3
ACUAGU: 0.646
CCACUU: 0.609

Set 3 — read-out: cell-free assay; technique: competition with immobilised ligand; tested at: 1 µM; measurement: remaining binding
Compound: CO[C@H]1CC[C@H](CNc2ccc(S(=O)(=O)NC(=O)c3ccc(N4CCN(CC5=C(c6ccc(Cl)cc6)CC(C)(C)CC5)CC4)cc3Oc3cnc4[nH]ccc4c3)cc2[N+](=O)[O-])CC1
STK4 (Homo sapiens, UniProt Q13043): 84%
YES1 (Homo sapiens, UniProt P07947): 88%
BRSK1 (Homo sapiens, UniProt Q8TDC3): 100%
KIT (Homo sapiens, UniProt P10721, L576P): 100%
Ribosomal protein S6 kinase alpha-4, C-terminal kinase domain (RPS6KA4, Homo sapiens, UniProt O75676): 90%
PIK3CA (Homo sapiens, UniProt P42336, H1047Y): 70%
KIT (Homo sapiens, UniProt P10721, A829P): 100%
CDKL1 (Homo sapiens, UniProt Q00532): 94%
FGFR2 (Homo sapiens, UniProt P21802): 100%
DCLK3 (Homo sapiens, UniProt Q9C098): 84%
PAK2 (Homo sapiens, UniProt Q13177): 68%
HIPK2 (Homo sapiens, UniProt Q9H2X6): 100%
CLK4 (Homo sapiens, UniProt Q9HAZ1): 58%
SBK3 (Homo sapiens, UniProt P0C264): 83%
CLK1 (Homo sapiens, UniProt P49759): 92%

Mixed results — technique: cross-linking MS; sample: cell fractions
EIF4A1 (Homo sapiens, UniProt P60842)
cross-linked residues (EIF4G2 (Homo sapiens, UniProt P78344); with: DMTMM): D125 to K313

RRS1 (Homo sapiens, UniProt Q15050)
cross-linked residues (KIF14 (Homo sapiens, UniProt Q15058); with: DSSO): K265 to T1307

Repeated from above (set 2):
AUAAUU: 0.752
AGGUAA: 0.81
GGCCAU: 1.01
CCCGGG: 1.47
